Published values pooled from the literature.
Lines come from different studies, so protocols differ. Several values in a cell are separate wells, animals, samples, runs or records.
Cell line: MDCK

| Compound | technique | tested at | time | pH | notes | endpoint | result |
| --- | --- | --- | --- | --- | --- | --- | --- |
| COc1cc(-c2ccnc3c2c(C)nn3-c2cccc(C(F)(F)F)c2)ccc1O | – | – | – | – | – | CC50 | 48.6 µM and 49 µM |
| O=C(O)C(F)(F)C(F)(F)C(F)(F)C(F)(F)C(F)(F)C(F)(F)C(F)(F)C(F)(F)C(F)(F)C(F)(F)C(F)(F)F | – | 2 µM | 90 min | pH 7.4 | receiver 0.4% BSA | Papp A to B | 14.3 ×10⁻⁶ cm/s |
| COc1cccc(N2C(N)=NC(N)=NC23CCN(C(=O)OC(C)(C)C)CC3)c1 | microscopy, altered cell morphology | – | – | – | – | minimum cytotoxic concentration | ≥ 100 µM |
| NC(=S)N/N=C/c1ccc(-c2ccc(C(=O)O)c(O)c2)o1 | MTT | concentration not given | – | – | – | cytotoxicity | not toxic |
| NC(=O)c1ncn([C@@H]2O[C@H](CO)[C@@H](O)[C@H]2O)n1 | cell morphology | – | – | – | – | minimum cytotoxic concentration | > 100 µM |
| Cl.NC1=NC2(CCCN(Cc3ccccc3)C2)N(c2ccc(Cl)cc2)C(N)=N1 (centres unmarked) | microscopy, altered cell morphology | – | – | – | – | minimum cytotoxic concentration | 100 µM |
| O=C(O)C(F)(F)C(F)(F)C(F)(F)C(F)(F)C(F)(F)C(F)(F)C(F)(F)F | – | 2 µM | 90 min | pH 7.4 | receiver 0.4% BSA | Papp A to B | 1.5 ×10⁻⁶ cm/s |
| Cc1nn(-c2ccc(Cl)cc2)c2nc(N)c(C#N)c(-c3ccc(O)c(O)c3)c12 | – | – | – | – | – | CC50 | 31.9 µM and 20.4 µM |
| NC12CC3CC(CC(C3)C1)C2 | cell morphology | – | – | – | – | minimum cytotoxic concentration | > 500 µM |
| Cc1cc(OCc2nnc(SC3CCCC3)n2-c2cccnc2)ccc1-c1ccc(S(C)(=O)=O)cc1 | – | 1 to 3 µM | – | – | – | viability | > 80% |
| NC(=O)c1ncn([C@@H]2O[C@H](CO)[C@@H](O)[C@H]2O)n1 | microscopy, altered cell morphology | – | – | – | – | minimum cytotoxic concentration | ≥ 20 µM |
| COc1cc(-c2ccnc3c2c(C)nn3-c2ccc(C(F)(F)F)cc2)ccc1O | – | – | – | – | – | CC50 | 27.8 µM and 25.3 µM |
| NC1=NC2(CCN(C(=O)C3CCC3)CC2)N(c2cccc(Cl)c2)C(N)=N1 | microscopy, altered cell morphology | – | – | – | – | minimum cytotoxic concentration | ≥ 20 µM |
| CC(N)C12CC3CC(CC(C3)C1)C2 (centres unmarked) | – | – | – | – | – | CC50 | > 200 µM |

Excerpt of the above:
| Compound | technique | tested at | time | pH | notes | endpoint | result |
| --- | --- | --- | --- | --- | --- | --- | --- |
| Cc1cc(OCc2nnc(SC3CCCC3)n2-c2cccnc2)ccc1-c1ccc(S(C)(=O)=O)cc1 | – | 1 to 3 µM | – | – | – | viability | > 80% |
| NC(=O)c1ncn([C@@H]2O[C@H](CO)[C@@H](O)[C@H]2O)n1 | microscopy, altered cell morphology | – | – | – | – | minimum cytotoxic concentration | ≥ 20 µM |
